Experimental data gathered from unrelated publications.
Parts stem from different laboratories: compare values within a part only.

Set 1
Target: Prothrombin, mature alpha-thrombin (F2, Homo sapiens, UniProt P00734)
Method: aptamer microarray, sandwich
Form: DNA with 2'F-ANA
Medium: in vitro
Concentration: 200 nM
Setting: whole 15-mer aptamer, many near background
With: Cy3 exosite-II aptamer, 400 nM
Direction: higher = stronger binding
Oligonucleotide: GGTTGGTGTGGTTGG
Modification | mean fluorescence intensity [a.u.]
2'F-ANA at 1 2 3 6 7 12 13 14 | 74
2'F-ANA at 4 5 11 12 13 14 | 46.8
2'F-ANA at 1 3 5 7 8 9 14 15 | 50.1
2'F-ANA at 1 3 7 8 11 13 | 303
2'F-ANA at 2 4 5 8 9 15 | 69.9
2'F-ANA at 2 4 6 10 11 13 | 65.3
2'F-ANA at 1 4 10 13 14 15 | 51.1
2'F-ANA at 1 3 4 5 7 9 13 14 15 | 48.3
2'F-ANA at 5 7 8 9 11 12 15 | 137

Set 2
Target: RNA binding protein fox-1 homolog 2, RRM domain, GST-SBP tag (RBFOX2, Homo sapiens, UniProt O43251-10, residues 100-194)
Method: RNA Bind-n-Seq
Form: RNA
Medium: in vitro
Concentration: 365 nM
Setting: natural RNA segment, single round, ends assumed
Baseline: no-protein control
Direction: higher = stronger binding
Shared flanks, not repeated: GGGAGUUCUACAGUCCGACGAUC … UGGAAUUCUCGGGUGCCAA
Target sequence (chain): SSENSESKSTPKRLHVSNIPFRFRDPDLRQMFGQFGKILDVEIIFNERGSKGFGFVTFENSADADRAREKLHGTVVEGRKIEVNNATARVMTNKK
Oligonucleotide | RBNS enrichment (R)
AGGCGAGUGCUCUGCCACUGAGUCACGGCCCAGCCCUCUCUCCCUCAUUCUUCUGUUUCCAUACCAAAGGCCAGGAGUGCUUCACUGUGCUGGAGCCAUGGUGUCCUUUG | 0.422
AAGUGAGUGCCAAGGGGAUUUAGUGGUGUGGUUCUUUCAAAGGGAGGUCAGGGUCAAUGGGAAUCUGCUCGGACACUCAACAUGGGGGUGGGUGCACUCCUUGGAGGAGG | 2.4
GCCCCACCCUUACCGGACACUGGGAAGAACUGUUGGCCCCUAGAAACCAAAGGCCAAACUGAGGCUGCCCUGAGUUGGAAGACCACUUUCUGAAAUGCCCAUGGACUCUG | 0.396
CAGUUGUUUUAAAAAUACUUAAUAAAAUAAGCUUUUUUCCUGUGGAAGAGAAAUGGUCUCCUUGGUUUUAAAAAUAACUUAGUGUCACGGUACUUUCUCUGUCCUCUCAA | 0.318
GAAAUUAACUGUAUAUCAUUCCAGUACAUUCCGUUGUACAUUUUAGUCUCCGUUUACUUUCUCUUCAUUGUUGAUAAGAGAAUGCCAAGCUGCGCGUUGUUCAGGCAGUU | 1.22
CUACAGAAAAAAGACAAGUGGAAGUGGUUUACCAAUACCUAGCAUGGUACAAUCAGAGCUCCGUGGGGACUGUAGGGAGCAGGGUGUUACUACUGGCCGUUCUUCCCACA | 0.511
AAAAAUCUGUAUAUACAGUCUAUGUGUUUAGAAUUUGUGUUGUAAGUAAACUACAGCUUUGAGUUGGAAAGAAGUCACGGGUUGUAAAACCAUUUGGAUUUUUUUAAAAC | 0.499
UUGCAGCCAGCGCUGCCCCAUGCCCUUCUGAUCCUCCCCCUCUCCCACCGCCCUCCCUGGAUAGGAUUUGGGCAGGGUUUCAGUCUCCACUGAUUGCCGCCUUGUUCUCC | 0.319

Set 3
Target: Centromere-binding protein 1, full length, N-terminal tag (CBF1, Saccharomyces cerevisiae, UniProt P17106, residues 1-351)
Sequence of UniProt P17106 (whole entry, looked up): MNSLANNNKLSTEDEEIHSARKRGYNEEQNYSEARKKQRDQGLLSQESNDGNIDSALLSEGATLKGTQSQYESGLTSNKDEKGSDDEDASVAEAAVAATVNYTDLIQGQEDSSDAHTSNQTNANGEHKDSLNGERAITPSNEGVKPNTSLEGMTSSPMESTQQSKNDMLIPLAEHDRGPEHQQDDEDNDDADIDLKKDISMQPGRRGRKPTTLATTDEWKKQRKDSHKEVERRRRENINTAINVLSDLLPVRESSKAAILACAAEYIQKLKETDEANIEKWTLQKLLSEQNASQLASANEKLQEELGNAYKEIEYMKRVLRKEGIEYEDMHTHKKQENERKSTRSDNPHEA
Method: protein-binding microarray
Form: double-stranded DNA, one strand shown
Medium: in vitro
Concentration: 0.8 µM
Setting: whole 60-bp probe, no competitor
Direction: higher = stronger binding
Shared flanks, not repeated: … GTCTTGATTCGCTTGACGCTGCTG
Oligonucleotide | fluorescence intensity
CTAAGGATATGACATCATGAGAAAAAAATGAGCTTC | 525 a.u.
TGTACGAAGCTATGACGCGTCACTATAGTAGTTAGG | 483 a.u.
CTATGGTGCCCGTATCTGATGTTTTTTTAGTAATTC | 496 a.u.
CTACTGTATTTCTATCACGTATCCTTCTAGGTTTTC | 660 a.u.
GAATCTAGCAGTACTAGCGTGATGTTAATGTTATAG | 627 a.u.
CTAGCCCGTGAGCGACTCATGACGCGCGTGTGCTTC | 644 a.u.
GAAGATATCCTCTGTCATGCCTCCACTGCCAGGTAG | 530 a.u.

Mixed results
Substance | target | test | test system | setting | how to read | quantity | value
PhoQ, residues 284 288 289 292 302 303 GNNTDL | PhoP, residues 12 14 15 18 19 LYFRQ (Escherichia coli, UniProt P23836) | Sort-seq, item: YFP reporter | E. coli | PhoQ-PhoP variant library, with: 10 µM Mg2+ | baseline: high Mg2+ state, higher = stronger signaling | fold induction | 3.87

Repeated from above (set 3):
Oligonucleotide | fluorescence intensity
CTAAGGATATGACATCATGAGAAAAAAATGAGCTTC | 525 a.u.
